Published values gathered from unrelated publications.
Lines come from different studies, so protocols differ. Several values in a cell are separate wells, animals, samples, runs or records. ± marks the error that the study gave. Values after ≈ are worked out from the molar mass of the structure shown.

Structure (SMILES) = CC(C)[C@H](NC(=O)CNC(=O)[C@H](CCC(N)=O)NC(=O)[C@H](C)N)C(=O)O; test system = human; setting = intravenous infusion, 90 mg/kg/h, 2 h, relatedness Probably; how to read = relative to: subjects; measurement = drug-related adverse events; result = 0%
Structure (SMILES) = CN[C@](C)(C[18F])C(=O)O; test system = SCID mouse DU-145 xenograft, spleen; setting = 60 min, post injection; measurement = tissue uptake; result = 6.5 ± 0.9 %ID/g
Structure (SMILES) = COc1ccc([N+]#[C][Re]2(=[C]=O)(=[C]=O)(=[C]=O)[N]3C(C)=CC=c4ccc5c(c43)[N]2C(C)=CC=5)cc1.O=S(=O)([O-])C(F)(F)F; test = cyclic voltammetry; test system = acetonitrile; setting = irreversible reduction; measurement = cathodic peak potential; result = -1.26 V vs SCE
Structure (SMILES) = C[C@@H](CO)NC(=O)c1cc(-c2ccc(Cl)cc2)nn(-c2cnn(C)c2)c1=O; test system = C57BL/6-Ly5.1 mice, B16F10-OVA melanoma; setting = oral, 30 mg/kg once daily; measurement = body weight; result = not toxic
Structure (SMILES) = O=P1(NCCCl)NCCCO1 (stereo not shown); test system = rat, plasma; setting = intravenous, 10 mg/kg CP, with: ketoconazole 0 mg/kg; measurement = AUC(0-inf); result = 1170 ± 144 ng·h/mL
Structure (SMILES) = CSCC[C@@H]1NC(=O)[C@@H]2CSSC[C@H](NC(=O)[C@H](CO)NC(=O)[C@H](C)N)C(=O)N[C@@H](CCCNC(=N)N)C(=O)N[C@@H]([C@@H](C)O)C(=O)N3CCC[C@H]3C(=O)N[C@@H](CCCCN)C(=O)N[C@@H](CC(=O)O)C(=O)N[C@H]3CSSC[C@H](NC(=O)[C@H](CCCCN)NC(=O)[C@H](CCCNC(=N)N)NC(=O)[C@H](CC(N)=O)NC1=O)C(=O)N[C@@H](CCCCN)C(=O)N[C@H]1CSSC[C@H](NC(=O)[C@@H]4CCCN4C(=O)[C@H](CC(=O)O)NC(=O)[C@H](C)NC3=O)C(=O)N[C@@H](C)C(=O)N[C@@H](CCCCN)C(=O)N[C@@H](CCC(=O)O)C(=O)N[C@@H]([C@@H](C)O)C(=O)NCC(=O)N[C@@H](CSSC[C@@H](C(N)=O)NC(=O)[C@H](CCCNC(=N)N)NC(=O)[C@H](CC(N)=O)NC1=O)C(=O)N1CCC[C@H]1C(=O)N[C@@H](Cc1ccc(O)cc1)C(=O)NCC(=O)N[C@@H](CCCCN)C(=O)N2; test system = DA rat, pristane-induced arthritis, serum; setting = subcutaneous, 0.1 mg/kg once weekly, end of 21-day trial; measurement = globulin; result = 1.16 g/dL
Structure (SMILES) = Cc1ccc(/C=C/C(=O)O)cc1-c1cc2c(cc1C)C(C)(C)CCC2(C)C; test system = Sprague-Dawley rat, male, plasma; setting = oral, 100 mg/kg, 3 h, sesame oil vehicle; measurement = LDL level; result = 14 ± 7.5 mg/dL
Structure (SMILES) = CC(C)[C@H](NC(=O)CNC(=O)[C@H](CCC(N)=O)NC(=O)[C@H](C)N)C(=O)O; test system = healthy male volunteers; setting = intravenous, 15 mg/kg/h, 2 h, with: LPS 2 ng/kg; measurement = subjects with unrelated AE; result = 25%
Structure (SMILES) = O=C(O)CC[C@H](NC(=O)O[C@@H](CCCCNC(=O)c1ccc([18F])cc1)C(=O)O)C(=O)O; test system = mouse, PC-3 PIP/flu xenografts, bone; setting = 90 min; measurement = tissue uptake; result = 0.79 ± 0.16 %ID/g
Structure (SMILES) = Fc1ccc2nc3c4cccnc4c4ncccc4c3nc2c1.[Cl-].[Cl-].[Ru+2].c1ccncc1.c1ccncc1.c1ccncc1.c1ccncc1; test system = red blood cells, rabbit; setting = 20 µM, 2 h, 37 °C; measurement = hemolysis; result = 0.65 ± 0.01%
Structure (SMILES) = CC[C@H](C)C(=O)N1CCC(NC(=O)Nc2ccc(OC(F)(F)F)c(F)c2)CC1; test system = healthy volunteers; setting = oral, 2 mg single dose; measurement = subjects with serious TEAE; result = 0%
Structure (SMILES) = COC(=O)C[C@](O)(CCCC(C)(C)OC(C)=O)C(=O)O[C@@H]1C(OC)=C[C@]23CCCN2CCc2cc4c(cc2[C@H]13)OCO4; test system = CD1 mouse, pancreas; setting = oral, 1 mg/kg, 0.5 h; measurement = tissue concentration; result = 179 ng/mL
Structure (SMILES) = CC(C)(CCCC/C=C/CCCCCC(C)(C)C(=O)O)C(=O)O; test system = beagle dog; setting = long-term GLP toxicity; measurement = NOAEL; result = 360 mg/kg
Structure (SMILES) = CCNc1cc2[o+]c3cc(NCC)c(C)cc3c(-c3ccccc3C(=O)OCCOCC[18F])c2cc1C; test system = rat, thyroid/trachea; setting = 60 min; measurement = tissue uptake; result = 1.05 ± 0.24 %ID/g
Structure (SMILES) = CC[C@H](C)[C@@H]1NC(=O)[C@H](CCCCN)NC(=O)[C@H](CCCCN)NC(=O)[C@H](Cc2ccc(O)cc2)NC(=O)[C@H](CC(C)C)NC(=O)[C@@H]2CCCN2C(=O)[C@H](C)NC(=O)CNC(=O)CNC(=O)[C@H](CO)NC(=O)CNC(=O)CNC(=O)[C@H](CO)NC(=O)[C@H](CCC(=O)O)NC(=O)[C@H](CC(C)C)NC(=O)[C@H](CC(C)C)NC(=O)[C@H](CCCNC(=N)N)NC(=O)[C@H](CCCCN)NC(=O)[C@H]([C@@H](C)CC)NC(=O)[C@H]([C@@H](C)CC)NC(=O)[C@H](CCCCN)NC(=O)[C@H](CCCCN)NC(=O)[C@H](Cc2ccc(O)cc2)NC(=O)[C@H](CC(C)C)NC(=O)[C@@H]2CCCN2C(=O)[C@H](C)NC(=O)CNC(=O)CNC(=O)[C@H](CO)NC(=O)CNC(=O)CNC(=O)[C@H](CO)NC(=O)[C@H](CCC(=O)O)NC(=O)[C@H](CC(C)C)NC(=O)[C@H](CC(C)C)NC(=O)[C@H](CCCNC(=N)N)NC(=O)[C@H](CCCCN)NC(=O)[C@H]([C@@H](C)CC)NC1=O; test = hemolysis; test system = uninfected human erythrocytes; setting = 1 h; measurement = HC10; result = 18 µM
Structure (SMILES) = CC(=CCC(O)C(C)=Cc1csc(C)n1)CC=CC(C)C(O)C(C)C(=O)C(C)(C)C(O)CC(=O)O (stereo not shown); test system = human, plasma; setting = concentration not given, cycle 1; how to read = relative to: compound over KOS-1584; measurement = AUC ratio; result = 9.43 ± 4.86%
Structure (SMILES) = CC(C)C[C@H](NC(=O)[C@H](CCCCN)NC(=O)[C@H](CC(C)C)NC(=O)[C@H](CC(C)C)NC(=O)[C@H](CCCCN)NC(=O)[C@H](CCCCN)NC(=O)[C@H](CC(C)C)NC(=O)[C@H](CC(C)C)NC(=O)[C@H](CCCCN)NC(=O)[C@H](CC(C)C)NC(=O)[C@H](CC(C)C)NC(=O)[C@H](CCCCN)NC(=O)[C@H](CCCCN)NC(=O)[C@@H](N)CC(C)C)C(N)=O; test = chemical stability, HPLC; test system = mouse, serum; setting = 8 h; measurement = compound remaining; result = ~38.5%
Structure (SMILES) = [2H]C([2H])([2H])C([2H])([2H])C([2H])([2H])OC(C(=O)OC1CCNCC1)(c1ccccc1)c1ccccc1; test system = healthy Japanese male subjects, plasma; setting = oral, 12 mg, day 1, mean; measurement = tmax; result = 4 h
Structure (SMILES) = C1=CCCC=CCC1.C1=CCCC=CCC1.[Cl][Hg-]([Cl])[Cl].[Cl][Hg-]([Cl])[Cl].[Pt+][c]1ccccc1P(=Nc1ccccc1)(c1ccccc1)c1ccccc1.[Pt+][c]1ccccc1P(=Nc1ccccc1)(c1ccccc1)c1ccccc1; test system = rat, intestine in situ perfusion; setting = 20 µM; measurement = effective permeability; result = 47.2 ×10⁻⁶ cm/s
Structure (SMILES) = O=C(O)CCn1c(=O)oc2cc(Cl)c(Cl)cc21; test system = rat, plasma; setting = intravenous, 27 mg/kg; measurement = plasma clearance; result = 0.45 mL/min/kg
Structure (SMILES) = C[C@@H]1CC[C@H]2[C@@H](C)CO[C@@H]3O[C@@]4(C)CC[C@@H]1[C@]32OO4; test = LC-MS/MS; test system = Sprague-Dawley rat, male, plasma; setting = intravenous, 5 mg/kg; measurement = half-life; result = 0.451 ± 0.0528 h
Structure (SMILES) = COc1cc2c3c(c4cc(OC)c(OC)cc4c2cc1OC)CN1CCCCC1C3 (stereo not shown); test system = Sprague-Dawley rats, male; setting = intravenous, dose not given; measurement = half-life; result = ~4 h
Structure (SMILES) = O=c1c2cc(Cl)ccc2sc2c(NCc3ccccc3)nc3ccccc3c12; test system = BALB/c nude mice; setting = i.p., 60 mg/kg; measurement = body weight gain; result = 5.55 ± 0.45%
Structure (SMILES) = CN(C)C(CNC(=O)Nc1cc(C(F)(F)F)ccc1N1CCOCC1)c1ccncc1 (stereo not shown); test system = mouse, serum; setting = intraperitoneal, 360 mg/kg single dose; measurement = serum albumin; result = 2.3 g/dL
Structure (SMILES) = CC(=O)N[C@@H](CCCNC(=N)N)C(=O)N[C@@H](CCCCN)C(=O)N[C@@H](CCC(=O)N=S(c1ccc(Cl)cc1)c1ccccc1O)C(=O)N[C@H](C(=O)N[C@@H](Cc1ccc(O)cc1)C(N)=O)C(C)C (stereo partly shown); test system = PBS; setting = 0.2 mM, up to 24 h, pH 7.4, 37 °C; measurement = chemical stability; result = stable
Structure (SMILES) = CC(C)[C@@H](CN1CC[C@@](C)(c2cccc(C(N)=O)c2)[C@@H](C)C1)NC(=O)[C@H]1Cc2ccc(O)cc2CN1; test system = 10 mM phosphate buffer; setting = 90 min, pH 7.4, room temperature, 1% DMSO; measurement = kinetic solubility; result = 54 µM (≈ 26.6 µg/mL)
Structure (SMILES) = CC1(C)OB(c2ccc(COC(=O)N(Cc3cccc(CN4CCCCC4)c3)[c-]3cccc3)cc2)OC1(C)C.[Fe+2].c1cc[cH-]c1; test = cyclic and differential pulse voltammetry; test system = acetonitrile; setting = 23 °C; how to read = relative to: ferrocene/ferrocenium; measurement = E1/2; result = -40 mV
Structure (SMILES) = COc1cc(NC(=O)C(=O)c2c(C)n(Cc3ccc(Cl)cc3)c3ccc(C)cc23)ccn1; test system = cynomolgus monkey, female, plasma; setting = intravenous, 1 mg/kg; measurement = Vc; result = 0.401 L/kg and 0.385 L/kg and 0.453 L/kg and 0.494 L/kg and 0.383 L/kg and 0.347 L/kg
Structure (SMILES) = CC(C)C[C@H](NC(=O)[C@H](CCCCN)NC(=O)[C@H](C)NC(=O)[C@@H]1CCCN1C(=O)[C@@H]1CCCN1C(=O)[C@H](CCCCN)NC(=O)[C@H](CCCCN)NC(=O)[C@H](CO)NC(=O)[C@H](CCC(=O)O)NC(=O)[C@H](CCCCN)NC(=O)[C@H](CCCNC(=N)N)NC(=O)[C@H](CCC(N)=O)NC(=O)[C@H](CCC(N)=O)NC(=O)[C@@H](NC(=O)[C@H](CCCNC(=N)N)NC(=O)[C@H](CCC(N)=O)NC(=O)[C@H](Cc1cnc[nH]1)NC(=O)[C@H](CCC(=O)O)NC(=O)[C@@H]1CCCN1C(=O)[C@H](CO)NC(=O)[C@H](CC(C)C)NC(=O)[C@H](Cc1ccccc1)NC(=O)[C@H](CO)NC(=O)[C@H](CO)NC(=O)CN)C(C)C)C(=O)N[C@@H](CCC(N)=O)C(=O)N1CCC[C@H]1C(=O)N[C@@H](CCCNC(=N)N)C(=O)O; test system = human, plasma; setting = intravenous infusion, 4 µg/kg/h, 210 min; measurement = mean residence time; result = 106 ± 8 min
Structure (SMILES) = CC[C@H](C)[C@H](NC(=O)[C@H](CC(=O)O)NC(=O)[C@H](CO)NC(=O)[C@H](CCC(N)=O)NC(=O)[C@H](C)NC(=O)[C@H](CC(=O)O)NC(=O)[C@H](CCC(=O)O)NC(=O)[C@H](Cc1c[nH]cn1)NC(=O)[C@H](Cc1ccc(O)cc1)NC(=O)[C@H](C)NC(=O)[C@H](CC(=O)O)NC(=O)[C@H](CCC(=O)O)NC(=O)[C@H](Cc1c[nH]cn1)NC(=O)[C@H](Cc1ccc(O)cc1)NC(=O)[C@H](C)NC(=O)[C@H](CC(=O)O)NC(=O)[C@H](CCC(=O)O)NC(=O)[C@H](Cc1c[nH]cn1)NC(=O)[C@H](Cc1ccc(O)cc1)NC(=O)[C@H](C)NC(=O)[C@H](CC(=O)O)NC(=O)[C@H](CCC(=O)O)NC(=O)[C@H](Cc1c[nH]cn1)NC(=O)[C@H](Cc1ccc(O)cc1)NC(=O)[C@H](C)NC(=O)[C@H](CC(=O)O)NC(=O)[C@H](CCC(=O)O)NC(=O)[C@H](Cc1c[nH]cn1)NC(=O)[C@@H](N)Cc1ccc(O)cc1)C(=O)N[C@H](C(=O)N[C@@H](C)C(=O)N[C@@H](Cc1c[nH]cn1)C(=O)N[C@@H](CC(C)C)C(=O)N[C@@H](CC(C)C)C(=O)O)C(C)C; test system = normal mouse, blood; setting = dose not given; measurement = BA share of white cells; result = 2.2 ± 0.5%
Structure (SMILES) = N=C(N)NCc1ccc(C(=O)NCCCC[C@H](NC(=O)CCCCCCC(=O)NCCCC[C@H](NC(=O)N[C@@H](CCC(=O)O)C(=O)O)C(=O)O)C(=O)O)cc1[131I]; test system = SCID mouse, PC-3 xenografts, thyroid; setting = 2 h; measurement = tissue uptake; result = 0.31 ± 0.23 %ID/g

Some of these lines once more:
Structure (SMILES) = O=c1c2cc(Cl)ccc2sc2c(NCc3ccccc3)nc3ccccc3c12; test system = BALB/c nude mice; setting = i.p., 60 mg/kg; measurement = body weight gain; result = 5.55 ± 0.45%
Structure (SMILES) = CN(C)C(CNC(=O)Nc1cc(C(F)(F)F)ccc1N1CCOCC1)c1ccncc1 (stereo not shown); test system = mouse, serum; setting = intraperitoneal, 360 mg/kg single dose; measurement = serum albumin; result = 2.3 g/dL
